Published values gathered from unrelated publications.
Parts stem from different laboratories: compare values within a part only. “And” joins repeats or separate records; there may be more than shown.
Sequence of UniProt P11247 (whole entry, looked up): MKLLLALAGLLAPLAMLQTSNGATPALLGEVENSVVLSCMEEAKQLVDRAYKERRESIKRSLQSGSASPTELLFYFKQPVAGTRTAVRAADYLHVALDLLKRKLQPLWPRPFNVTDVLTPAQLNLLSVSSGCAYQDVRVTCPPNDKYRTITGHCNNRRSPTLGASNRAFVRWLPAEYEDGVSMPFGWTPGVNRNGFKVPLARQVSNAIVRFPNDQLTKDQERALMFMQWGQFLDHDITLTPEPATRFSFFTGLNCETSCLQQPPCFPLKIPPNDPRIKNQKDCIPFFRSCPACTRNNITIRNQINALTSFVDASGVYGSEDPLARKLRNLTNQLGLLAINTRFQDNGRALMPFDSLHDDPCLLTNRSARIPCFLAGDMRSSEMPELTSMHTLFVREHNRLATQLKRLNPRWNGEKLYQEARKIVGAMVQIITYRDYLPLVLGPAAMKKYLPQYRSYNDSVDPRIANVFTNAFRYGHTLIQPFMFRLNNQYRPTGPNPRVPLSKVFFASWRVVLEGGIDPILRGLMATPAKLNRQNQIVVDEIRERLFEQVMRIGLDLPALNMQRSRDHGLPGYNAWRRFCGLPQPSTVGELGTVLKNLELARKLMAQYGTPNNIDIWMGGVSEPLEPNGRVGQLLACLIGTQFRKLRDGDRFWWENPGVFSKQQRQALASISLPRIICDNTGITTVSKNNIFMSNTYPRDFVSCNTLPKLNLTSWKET
Sequence of UniProt P05164 (whole entry, looked up): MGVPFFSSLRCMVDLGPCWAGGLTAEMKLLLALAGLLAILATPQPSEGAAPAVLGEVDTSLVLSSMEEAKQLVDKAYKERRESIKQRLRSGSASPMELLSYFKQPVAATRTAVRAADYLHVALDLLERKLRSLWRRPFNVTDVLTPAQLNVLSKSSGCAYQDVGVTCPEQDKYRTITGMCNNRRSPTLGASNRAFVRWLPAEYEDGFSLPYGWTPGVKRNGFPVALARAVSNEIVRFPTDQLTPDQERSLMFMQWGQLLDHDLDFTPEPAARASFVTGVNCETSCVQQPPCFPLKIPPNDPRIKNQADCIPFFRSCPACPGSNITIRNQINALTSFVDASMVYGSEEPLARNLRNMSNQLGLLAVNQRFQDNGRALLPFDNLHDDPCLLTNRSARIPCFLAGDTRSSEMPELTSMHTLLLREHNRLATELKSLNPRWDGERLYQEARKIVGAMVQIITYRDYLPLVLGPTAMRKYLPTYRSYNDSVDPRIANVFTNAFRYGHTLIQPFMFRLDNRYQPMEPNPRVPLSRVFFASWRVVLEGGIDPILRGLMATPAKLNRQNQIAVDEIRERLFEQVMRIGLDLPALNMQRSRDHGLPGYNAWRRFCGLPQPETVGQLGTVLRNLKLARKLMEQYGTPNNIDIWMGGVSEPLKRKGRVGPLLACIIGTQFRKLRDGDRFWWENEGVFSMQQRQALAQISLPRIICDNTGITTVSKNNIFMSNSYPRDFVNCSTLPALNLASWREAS

Block 1
Compound: C[C@@H]1CN(c2ccc(-c3cc(C(=O)NCCOCCOCCOCCOCCOCCOCCNC(=O)/C=C/c4[nH]cc(C(=O)N[C@@H](CC(N)=O)c5ccc(F)c(Cl)c5)c4-c4ccc(Cl)cc4F)ccc3F)cc2NC(=O)c2ccc(F)cc2C(F)(F)F)C[C@H](C)N1C
Observed: thermal unfolding
Technique: differential scanning fluorimetry
Tested at: 5.5 µM
Reading: higher = more unfolded
DCAF1: DDB1- and CUL4-associated factor 1 (DCAF1, Homo sapiens, UniProt Q9Y4B6)
Sequence of UniProt Q9Y4B6 (whole entry, looked up): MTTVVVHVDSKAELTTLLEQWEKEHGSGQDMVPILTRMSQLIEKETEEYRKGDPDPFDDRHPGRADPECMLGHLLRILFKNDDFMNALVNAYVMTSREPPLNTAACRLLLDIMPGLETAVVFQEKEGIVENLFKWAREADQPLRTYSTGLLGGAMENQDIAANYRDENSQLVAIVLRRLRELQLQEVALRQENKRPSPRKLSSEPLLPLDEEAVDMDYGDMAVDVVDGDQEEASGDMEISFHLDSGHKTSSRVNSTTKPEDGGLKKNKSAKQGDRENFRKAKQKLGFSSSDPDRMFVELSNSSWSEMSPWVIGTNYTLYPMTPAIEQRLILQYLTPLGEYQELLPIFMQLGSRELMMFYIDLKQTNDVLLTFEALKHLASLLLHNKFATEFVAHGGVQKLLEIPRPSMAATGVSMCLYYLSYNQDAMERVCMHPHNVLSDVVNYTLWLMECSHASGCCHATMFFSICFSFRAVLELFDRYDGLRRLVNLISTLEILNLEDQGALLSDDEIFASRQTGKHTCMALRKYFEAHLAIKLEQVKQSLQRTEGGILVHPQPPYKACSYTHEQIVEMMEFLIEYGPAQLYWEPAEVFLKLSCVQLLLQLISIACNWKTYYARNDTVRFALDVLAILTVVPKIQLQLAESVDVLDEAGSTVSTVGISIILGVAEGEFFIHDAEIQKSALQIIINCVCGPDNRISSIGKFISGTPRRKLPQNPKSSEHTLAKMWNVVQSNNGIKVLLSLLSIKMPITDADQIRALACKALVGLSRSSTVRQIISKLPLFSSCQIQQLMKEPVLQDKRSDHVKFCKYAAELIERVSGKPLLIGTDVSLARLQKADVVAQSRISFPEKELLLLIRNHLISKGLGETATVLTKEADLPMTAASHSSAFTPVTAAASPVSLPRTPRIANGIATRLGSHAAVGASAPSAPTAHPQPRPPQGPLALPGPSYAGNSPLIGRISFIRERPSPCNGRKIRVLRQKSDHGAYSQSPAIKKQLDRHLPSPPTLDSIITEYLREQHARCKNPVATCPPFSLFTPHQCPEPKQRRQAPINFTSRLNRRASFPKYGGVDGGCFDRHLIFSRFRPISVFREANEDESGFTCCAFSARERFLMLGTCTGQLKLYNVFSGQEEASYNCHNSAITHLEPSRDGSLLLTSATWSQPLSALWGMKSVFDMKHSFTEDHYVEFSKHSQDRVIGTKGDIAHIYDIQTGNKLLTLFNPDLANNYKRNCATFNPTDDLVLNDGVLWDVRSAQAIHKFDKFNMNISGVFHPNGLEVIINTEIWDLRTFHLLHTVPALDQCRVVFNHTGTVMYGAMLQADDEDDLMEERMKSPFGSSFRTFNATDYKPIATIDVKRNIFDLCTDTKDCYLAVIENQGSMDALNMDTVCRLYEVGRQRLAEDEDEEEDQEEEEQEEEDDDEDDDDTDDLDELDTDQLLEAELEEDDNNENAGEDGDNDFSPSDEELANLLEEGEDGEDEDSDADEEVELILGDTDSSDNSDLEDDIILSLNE
target | temperature | SYPRO Orange fluorescence [a.u.]
WDR5 (Homo sapiens, UniProt P61964) | 93.01 °C | 50500
DCAF1 | 73.61 °C | 45200
DCAF1 | 82.01 °C | 38500
DCAF1 | 26 °C | 7450
DCAF1 | 35.6 °C | 10100
DCAF1 | 81.61 °C | 38900
DCAF1 | 48 °C | 16600

Block 2
SMILES: CCN1/C(=C/C=C2\CCCC(/C=C/C3=[N+](CC)c4ccccc4C3(C)C)=C2NCCCCCCCCN2CCC(Nc3nc4ccccc4n3Cc3ccc(F)cc3)CC2)C(C)(C)c2ccccc21
Cell line: U-87 MG
Tested at: concentration not given
Baseline: DMSO
item | log2 fold change
CDKN2AIP mRNA | 1.11
WEE1 mRNA | -2.13
BORA mRNA | -1.4
TNFRSF1A mRNA | -0.975
PSMD8 mRNA | 0.864
CCNB2 mRNA | -1.64
NTNG1 mRNA | -1.16
RELB mRNA | 1.6
GALNT15 mRNA | -3.48
APOBEC3C mRNA | -1.03
BDKRB2 mRNA | -1.89

Block 3
Cell line: HCC1569
Technique: in-cell western
Item: CDK1 phospho-Thr14
Time: 24 h
Compound | IC50
Cc1ccc(O)c(C)c1-c1cnc2[nH]c(-c3cnc(N4CCC(CN5CCN(c6ccc(NC7CCC(=O)NC7=O)c(F)c6)CC5)CC4)nc3)cc2c1C#N (racemic) | 74 nM
Cc1ccc(O)c(C)c1-c1cnc2[nH]c(-c3cnc(N4CCC(CN5CCN(c6ccc7c(c6)CN(C6CCC(=O)NC6=O)C7=O)CC5)CC4)nc3)cc2c1C#N (stereo not drawn) | 52 nM
Cc1ccc(O)c(C)c1-c1cnc2[nH]c(-c3cnc(N4CCC(CN5CCN(c6cc7c(cc6F)n(C6CCC(=O)NC6=O)c(=O)n7C)CC5)CC4)nc3)cc2c1C#N (stereo not drawn) | 136 nM
Cc1ccc(O)c(C)c1-c1cnc2[nH]c(-c3cnc(N4CCC(CCN5CCN(c6ccc(NC7CCC(=O)NC7=O)cc6F)CC5)CC4)nc3)cc2c1C#N (stereo not drawn) | 17 nM
Cc1ccc(O)c(C)c1-c1cnc2[nH]c(-c3cnc(N4CCC5(CC4)CC(N4CCN(c6ccc(NC7CCC(=O)NC7=O)cc6F)CC4)CO5)nc3)cc2c1C#N (stereo not drawn) | 18 nM
Cc1ccc(O)c(C)c1-c1cnc2[nH]c(-c3cnc(N4CCC(CN5CCN(c6cc7c(cc6F)c(N6CCC(=O)NC6=O)nn7C)CC5)CC4)nc3)cc2c1C#N | 55 nM
Cc1ccc(O)c(C)c1-c1cnc2[nH]c(-c3cnc(N4CC5(CC(CN6CCN(c7ccc(NC8CCC(=O)NC8=O)cc7F)CC6)C5)C4)nc3)cc2c1C#N (stereo not drawn) | 14 nM

Further values, each from its own experiment
Structure (SMILES) | target | assay | system | setting | measurement | result
NC/C(=C\F)COc1ccc(-c2cc(=O)[nH]c(=S)n2CC(N)=O)c(Cl)c1 | Myeloperoxidase (MPO, Homo sapiens, UniProt P05164) | enzyme activity, inhibitor, fluorescence | – | 3.333 µM | inhibition | 89.1%
NC/C(=C\F)COc1cccc(Cn2c(=S)[nH]c(=O)c3[nH]cnc32)c1 | Myeloperoxidase (Mus musculus, UniProt P11247) | ELISA, item: myeloperoxidase | mice, zymosan or thioglycolate peritonitis, peritoneal lavage | 60 mg/kg | protein level | 2540 ng/mL and 1920 ng/mL and 2610 ng/mL

Some of these lines once more (block 2):
item | log2 fold change
TNFRSF1A mRNA | -0.975
BDKRB2 mRNA | -1.89
CDKN2AIP mRNA | 1.11
BORA mRNA | -1.4
